Assay results of several laboratories.
Every numbered part comes from another study and shows a few of its results, in no order.

Block 1
Target: Phosphate system positive regulatory protein PHO4, full length, GST-tagged (PHO4, Saccharomyces cerevisiae, UniProt P07270, residues 1-312)
Technique: competition protein-binding microarray
Form: double-stranded DNA, one strand shown
Medium: in vitro
Concentration: 2 µM
Notes: whole 60-bp probe, lowest competitor level
Together with: Cbf1 competitor, 0.05 µM
Direction: higher = stronger binding
Residues (chain): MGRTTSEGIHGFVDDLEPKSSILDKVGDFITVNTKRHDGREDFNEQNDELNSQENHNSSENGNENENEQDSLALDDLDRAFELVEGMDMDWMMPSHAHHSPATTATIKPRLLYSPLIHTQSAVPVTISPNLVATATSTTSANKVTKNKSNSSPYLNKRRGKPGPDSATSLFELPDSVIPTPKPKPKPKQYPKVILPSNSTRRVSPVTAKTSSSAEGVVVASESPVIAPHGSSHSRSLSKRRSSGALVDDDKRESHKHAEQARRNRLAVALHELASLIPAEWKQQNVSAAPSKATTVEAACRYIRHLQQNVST
`TGCGCAACAACTTGCAACGTGGGTGTATGTCTAGAAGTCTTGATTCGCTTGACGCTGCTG` has a fluorescence intensity of 13900 a.u.
The fluorescence intensity of `CTTCTGTAAATTTGCACGGTGGGTGGACGCGCCCCGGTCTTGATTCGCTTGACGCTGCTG` is reported as 6610 a.u.
The fluorescence intensity of `GCCAAATCTGCCAGCTTCGTGATGGACATCAACAGAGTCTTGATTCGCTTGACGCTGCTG` is reported as 4020 a.u.
The fluorescence intensity of `CAGCATTAGCTAAAACACGTTAATATGGTGGAGTCAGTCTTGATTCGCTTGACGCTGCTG` is reported as 6270 a.u.
For `AGGACGAGAAACAAGCACATGATGTGTGTCGAAAAAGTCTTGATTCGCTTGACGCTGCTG`, the fluorescence intensity was 8860 a.u.
For `AAAGCGGTAATTTGTCCGGTGGGTGCAGATATCTATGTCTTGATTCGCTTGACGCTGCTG`, the fluorescence intensity was 4190 a.u.

Block 2
Target: Sal-like protein 4, full length isoform B (SALL4, Homo sapiens, UniProt Q9UJQ4-2, residues 1-616)
Technique: universal PBM
Form: double-stranded DNA, one strand shown
Medium: in vitro
Concentration: not given
Notes: 8-mer, flanks averaged, mean of replicates
Direction: higher = stronger binding
Residues (chain): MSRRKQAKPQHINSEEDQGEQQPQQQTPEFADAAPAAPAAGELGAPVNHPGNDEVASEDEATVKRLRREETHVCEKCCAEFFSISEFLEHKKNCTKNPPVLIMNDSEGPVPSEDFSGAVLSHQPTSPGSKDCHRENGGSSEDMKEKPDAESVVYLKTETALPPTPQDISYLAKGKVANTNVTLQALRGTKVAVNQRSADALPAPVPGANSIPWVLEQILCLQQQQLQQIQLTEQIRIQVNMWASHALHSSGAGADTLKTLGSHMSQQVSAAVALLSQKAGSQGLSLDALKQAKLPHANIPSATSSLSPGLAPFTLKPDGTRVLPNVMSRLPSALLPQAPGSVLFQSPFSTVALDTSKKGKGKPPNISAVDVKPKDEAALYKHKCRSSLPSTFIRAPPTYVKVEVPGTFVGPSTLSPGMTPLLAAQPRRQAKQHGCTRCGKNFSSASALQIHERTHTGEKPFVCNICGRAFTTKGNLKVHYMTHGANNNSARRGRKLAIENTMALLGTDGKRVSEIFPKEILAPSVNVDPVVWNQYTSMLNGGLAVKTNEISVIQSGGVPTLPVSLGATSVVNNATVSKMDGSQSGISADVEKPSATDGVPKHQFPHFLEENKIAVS
For `CCCGGAAA`, the E-score was -0.263.
`GATAATCC` gave an E-score of -0.0158.
`CTCACATC` gave an E-score of -0.00388.
`CCAAAGGC` gave an E-score of -0.212.

Block 3
Target: Interferon regulatory factor 5, full length, phosphomimetic (IRF5, Homo sapiens, UniProt Q13568-2, residues 1-514, S451D/S453D/S456D/S462D)
Technique: protein-binding microarray
Form: double-stranded DNA, one strand shown
Medium: in vitro
Concentration: 940 nM top
Notes: 60-bp whole probe
Together with: salmon DNA 0.4 mg/ml
Baseline: random background probes
Direction: higher = stronger binding
Constant ends, left off below: GCCTAGCAC … GTGCTAGGTCTTGATTCGCTTGACGCTGCTG
`TTAGATCTCAGTTTCCATTA`: “fitted relative affinity” 1.31 z-score.
`GATGGACTGGGTATCGGGAC`: “fitted relative affinity” 0.876 z-score.
`GTAGGACTGGGTCTCGGTTA`: “fitted relative affinity” 1.11 z-score.
For `GAAGATATCAGACTGGAGAC`, “fitted relative affinity” read -0.44 z-score.
For `GACGGACGGCTACTGCTGAC`, “fitted relative affinity” read -0.933 z-score.

Further values, each from its own experiment
`PhoQ, residues 284 288 289 292 302 303 TYGVAM` gave a fold induction of 12.9 (PhoP, residues 12 14 15 18 19 LHTVM (Escherichia coli, UniProt P23836); Sort-seq, measured: YFP reporter; E. coli; PhoQ-PhoP variant library, together with: 10 µM Mg2+; baseline: high Mg2+ state, higher = stronger signaling).
